Published values collected from several papers.
Parts stem from different laboratories: compare values within a part only.

Sample 1
Target: Sal-like protein 4, full length isoform B (SALL4, Homo sapiens, UniProt Q9UJQ4-2, residues 1-616)
Method: universal PBM
Molecule type: double-stranded DNA, one strand shown
Matrix: in vitro
Concentration: not given
Setting: 8-mer, flanks averaged, mean of replicates
Reading: higher = stronger binding
Measurement: E-score
GACCTGCC: -0.324
CGCCCGTC: -0.215
ATAGTCGC: 0.0569
CGCCAGGA: -0.183
ACTAGAGT: 0.0853
AATTCAAC: 0.159
GAACTTCA: 0.0314
ACCGAGAG: -0.12
CTGACTAC: -0.0263
CATGAGAG: -0.13
ATAGTGGG: -0.00939
GTTGTTTA: 0.25
ACTGCGAC: -0.0928
AAAACCCT: 0.125
CTGTACCA: -0.0348
AAAAGCCA: 0.00471
GAGCTAAC: -0.0344
GAGGCTTA: 0.00273
GAACTGGC: -0.272
CGAGAGTC: -0.192
GGTAGGAA: -0.0391
CGCACTAC: -0.165

Sample 2
Target: Histone acetyltransferase KAT6A, winged helix 2, GST fusion (KAT6A, Homo sapiens, UniProt Q92794, residues 85-181)
Method: protein binding microarray
Molecule type: double-stranded DNA, one strand shown
Matrix: in vitro
Concentration: not given
Setting: 8-mer, flanks averaged, mean of 2 arrays, mostly near background
Relative to: not given
Reading: higher = stronger binding
Measurement: E-score
Residues (chain): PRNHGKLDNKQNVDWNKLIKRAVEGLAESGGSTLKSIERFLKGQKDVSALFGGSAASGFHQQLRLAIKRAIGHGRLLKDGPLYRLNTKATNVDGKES
TCAGGGAA: -0.00759
AGTCACTG: -0.0336
ACAGTCGT: -0.161
GACCCATA: -0.113
CATACACG: 0.0566
GCGAGTCA: 0.0968
GAGAGAAC: 0.0804
GCCTCGGA: 0.0298
GACGCTGA: -0.0512
CATCTCGC: 0.0658
GAATTCCC: 0.0442
AATAAGGA: -0.197
CCGCAGGA: 0.145
AGACAAGA: -0.0608
AGGGACAC: 0.148
ACGCTATC: -0.15
CAGCTGGG: 0.0126
CCGCTTGA: 0.169
AGGCCACA: -0.0886
CAGGCTAG: -0.0938
ATAAAACA: -0.029

Sample 3
Target: RNA binding protein fox-1 homolog 2, RRM domain, GST-SBP tag (RBFOX2, Homo sapiens, UniProt O43251-10, residues 100-194)
Method: RNA Bind-n-Seq
Molecule type: RNA
Matrix: in vitro
Concentration: 365 nM
Setting: natural RNA segment, single round, ends assumed
Relative to: no-protein control
Reading: higher = stronger binding
Measurement: RBNS enrichment (R)
Target sequence (chain): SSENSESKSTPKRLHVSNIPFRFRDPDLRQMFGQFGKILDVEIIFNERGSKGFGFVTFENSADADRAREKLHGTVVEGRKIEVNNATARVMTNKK
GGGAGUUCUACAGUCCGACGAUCGGAGCUCUUGGAUAUCAUUGGCCAUGUUUCAAUCGAAUGGAGCCACUGGGCCCCAACACUGGCUUUGAGAUUUAGAGUCAAAGGGUAGAGUGAACAGGAAAGGGUCACGUUGGAAUUCUCGGGUGCCAA: 0.678
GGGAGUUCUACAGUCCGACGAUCACACAAGAAAGAAUGCAAAAACAAAAGUGAUUUUUUAAAAAUGAGGUUAAAUCGAUUUUGCAUCAGUCACUGAACUGUCAGCUACGUGGCAGGAACCGGACGGAAGAAUCUGGAAUUCUCGGGUGCCAA: 0.773
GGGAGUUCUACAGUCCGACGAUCGCCCAGGAGGGCGUGAUCCGAGUGAAGCCCCAGGUCUCAGAGAGCAAGCUGUAGCCAGAGGUACCAGCUUCGCCUGGGGCUUCAAGAACCUCCCAUCUAUCCCCAUUCCUUGGAAUUCUCGGGUGCCAA: 0.342
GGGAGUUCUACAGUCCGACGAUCGCCGAAUCCUUCCCUCCAGCCCGAGACUACAAGAAGAAACAGACUUUGGCCUGGUCCCAGGGGCCAGAGCUGGCAGUGGCUCCCAGAGCUCUGUCCAGCCACAAGUUUGAUGGAAUUCUCGGGUGCCAA: 0.257
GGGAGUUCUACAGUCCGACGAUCUGCCUGCCUGCUGUUGGUCCUCUCUCUGUGGGGCUGAAUUGCCAGGGGCGAGGCCCUUCCUCUUUGGUGGCAUGGAAGGGGCUUCUGGACCUAGGGUGGCCUGAGAGGGCUGGAAUUCUCGGGUGCCAA: 2.23
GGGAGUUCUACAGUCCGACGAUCAACACCCCUUGGUGCAGGCCUCCUGGCACUCGCCUGGCAUCUUGGUGUCCGGGUGCUCAGCUCCUGGGUCCCAGGGCAGUGGGACAGCUCCCAGGCUCUUCUCAUCAGAGUGGAAUUCUCGGGUGCCAA: 0.264
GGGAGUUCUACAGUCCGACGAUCCACCGUGGCUUCCCUUCUCCCUCCAGGCCAAAGUGCUGCUGAUUCCCACUCCCUUGGUUUUCGCCUGCCCAGCGUUGCUGUUUGCGUGGAGGGUGGGGGGAGCUCAGUGGUGGAAUUCUCGGGUGCCAA: 0.49
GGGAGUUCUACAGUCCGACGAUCGUGGUUGGGCGAGUGUCCUUGUUAAUUGAUACCUAAUUGGCCUUGGUUGGGAACAUAGCCAUGAGUGCCCCUCGUGGGUGGGGCGCCAGUCUGUCAUUGACCUCAUUGUGUGGAAUUCUCGGGUGCCAA: 0.848
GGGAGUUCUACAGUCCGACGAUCAUUCCCCUCCACCUCGGGAGGGGACAGGCUCCCACAUCCCAUCCCACCCUCCACACCCCAAAGAGAAAUCCCUUCAAAACAGUUUGGGGCCUGUAGCCAGGGUGGGAGGGUGGAAUUCUCGGGUGCCAA: 0.313
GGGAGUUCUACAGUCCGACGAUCGUGUCCCGGGACUCUUUCCGUUCAUUGUUUGCUUUUUUGGCAACUAGGAGGUUGGCACUAAGACCCAGGACAAUGUUACUUCUCUGUGAUGUGUGGUGACUUCCCUCUGCUGGAAUUCUCGGGUGCCAA: 0.69
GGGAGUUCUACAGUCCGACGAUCUGAGUAGUGUGACAGAGUUUGCCUCUUAAAAUUGUUUUGCUAAUAAGUCAGAAGUUUAAAAUGUGUUAUAGUUUGCUAAAAAAAAAUCAAAUUAACUGCAUAUAAAAUGGUGGAAUUCUCGGGUGCCAA: 0.621
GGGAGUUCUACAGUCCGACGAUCCAUUAAAAGUAUUAUCUUUAUCAACAUUUGCUGCUACUGUGUUAACAUUUUUGUUUUGCUUGCCAUGAAUUUCAACUUCCACCACCCAGUGAAUUGAUUUAUAAAUUGCUUGGAAUUCUCGGGUGCCAA: 1.69

Sample 4
Target: Ras GTPase-activating protein-binding protein 1, full length (G3BP1, Homo sapiens, UniProt Q13283)
UniProt Q13283, sequence (whole entry, looked up): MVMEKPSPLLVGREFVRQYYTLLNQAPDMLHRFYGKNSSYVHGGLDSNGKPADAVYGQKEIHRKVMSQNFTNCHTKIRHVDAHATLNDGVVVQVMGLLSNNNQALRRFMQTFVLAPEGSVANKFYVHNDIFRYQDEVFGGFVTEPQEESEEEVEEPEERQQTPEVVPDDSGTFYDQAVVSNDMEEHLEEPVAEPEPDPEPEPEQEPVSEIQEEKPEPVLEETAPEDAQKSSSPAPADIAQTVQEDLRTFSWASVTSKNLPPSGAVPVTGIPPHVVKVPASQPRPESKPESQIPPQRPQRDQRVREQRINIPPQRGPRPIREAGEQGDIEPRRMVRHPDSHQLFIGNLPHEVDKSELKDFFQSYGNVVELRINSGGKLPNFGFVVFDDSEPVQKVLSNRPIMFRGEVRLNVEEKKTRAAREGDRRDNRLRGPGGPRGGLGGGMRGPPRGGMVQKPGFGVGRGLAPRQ
Method: RNA Bind-n-Seq
Molecule type: RNA
Matrix: in vitro
Concentration: 200 nM
Setting: whole 134-nt RNA, ends assumed
Together with: 150 mM KCl
Relative to: input library
Reading: higher = stronger binding
Measurement: log2 enrichment
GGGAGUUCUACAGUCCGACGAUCCCUCAAGUCCUGUGCUACACAUCGUAUGUACCGAAUCGGGGUGGGUGGGUGGAAAGUAUUAUGUUACGCCGUUCGGAUCUGCACUUCCAGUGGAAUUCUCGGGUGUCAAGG: 1.51
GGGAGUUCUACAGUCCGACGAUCUAACUUUAGAGGAGGAUCUGAUGGAUAUGGCAGUGGACGUGGAUUUGGGGAUGGCUAUAAUGGGUAUGGAGGAGGACCUGGAAGUGGCAAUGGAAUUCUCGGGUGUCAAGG: 0.247
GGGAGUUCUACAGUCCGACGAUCUCCUCAAGUCCUGUGCUACACAUCGUAUGUACCGAAUCGGUGGGGUGGUGGGAAAGUAUUAUGUUACGCCGUUCGGAUCUGCACUUCCAGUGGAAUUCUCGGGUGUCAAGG: 0.461
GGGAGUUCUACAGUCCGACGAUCUCCUGUGCUACACAUCGUAUGUACCGAAUCGGGUUUUUUUGGGUUUUUGGGAAAAAGGGAAAGUAUUAUGUUACGCCGUUCGGAUCUGCAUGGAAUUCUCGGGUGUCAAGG: -0.456
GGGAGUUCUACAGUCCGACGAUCGCAGGAAGUAAAAACAAAUGGAAAUCCUUCGGAUAGUGGCAGGGGUGGGGGUUGCUAAGGAAAGGGUGGGAUGGGAGUGGGUAAAGAGUUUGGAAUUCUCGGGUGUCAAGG: 1.15
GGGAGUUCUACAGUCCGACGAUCUCAAGUCCUGUGCUACACAUCGUAUGUACCGAAUCGGAAAGGUUUGGAAAAAGGAAAGUAUUAUGUUACGCCGUUCGGAUCUGCACUUCCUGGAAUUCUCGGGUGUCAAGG: -0.944
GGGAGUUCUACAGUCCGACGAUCAAGUCCUGUGCUACACAUCGUAUGUACCGAAUCGGGUUUUUGGGAAAGGGAAAGGGAAAGUAUUAUGUUACGCCGUUCGGAUCUGCACUUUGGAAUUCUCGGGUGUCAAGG: 0.0252
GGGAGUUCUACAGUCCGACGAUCCAAGUCCUGUGCUACACAUCGUAUGUACCGAAUCGGGAAAGGGGAAAGGGAAAGGAAAGUAUUAUGUUACGCCGUUCGGAUCUGCACUUCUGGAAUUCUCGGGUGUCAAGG: -0.326
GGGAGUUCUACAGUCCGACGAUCAGUCCUGUGCUACACAUCGUAUGUACCGAAUCGGGUUUUUUUGGGAGGGUUUUUGGGAAAGUAUUAUGUUACGCCGUUCGGAUCUGCACUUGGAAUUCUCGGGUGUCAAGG: -0.141
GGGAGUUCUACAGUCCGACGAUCUCCUGUGCUACACAUCGUAUGUACCGAAUCGGCCCCCCCGGCCCCCCCGGCCCCCCCGGAAAGUAUUAUGUUACGCCGUUCGGAUCUGCAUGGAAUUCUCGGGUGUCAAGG: 0.376
